Measured values gathered from unrelated publications.
Lines come from different studies, so protocols differ. ± marks the error that the study gave.

Structure (SMILES)	technique	matrix	pH	temperature	setting	logP
C[C@@H](NC(=O)c1ccccc1CCC(=O)NNC(=O)/C=C/C(=O)OCc1ncccn1)c1cccc2ccccc12	–	–	–	–	–	2.7
Cc1nc(C)c(-c2ccnc(N)n2)s1	–	octanol/buffer	pH 11	–	–	1.59
COC(=O)CNC(=O)c1nc(Cl)c2ccccc2c1O	shake-flask, potentiometric	1-octanol/water	–	–	–	3.3
C[C@@H](NC(=O)c1ccccc1CCC(=O)NNC(=O)/C=C/C(=O)O)c1cccc2ccccc12	–	–	–	–	–	2.8
Cc1ncc2c(c1O)COC2c1ccc(Cl)cc1 (stereo not drawn)	shake-flask, potentiometric	1-octanol/water	–	–	–	2.2
C=Cc1c(C)c2cc3nc(c4c5[nH]c(cc6nc(cc1[nH]2)C(C)=C6CC)c(C)c5C(=O)C4)[C@@H](CCC(=O)OC)[C@@H]3C	–	octanol/water	–	–	–	0.801
NC(=O)c1ccc(C(=O)Nc2cc(C3CC3)[nH]n2)cc1	–	octanol/buffer, 40 mM buffer	pH 11	–	–	1.25
CCCCC/C=C\C/C=C\CCCCCCCC(=O)O.Cc1cc(/C=C/C#N)cc(C)c1Nc1ccnc(Nc2ccc(C#N)cc2)n1	–	octanol/water	–	room temperature	–	2.56 ± 0.03
O=C(Cn1c(NCCO)nc2ccccc21)c1cccc([N+](=O)[O-])c1	–	octanol/buffer	pH 11	–	known kinase inactives set	1.79
C=Cc1c(C)c2cc3nc(c4c5[nH]c(cc6nc(cc1[nH]2)C(C)=C6CC)c(C)c5C(=O)C4)[C@@H](CCC(=O)O)[C@@H]3C	–	octanol/water	–	–	–	0.534
COC(=O)/C=C/C(=O)NNC(=O)CCc1ccccc1C(=O)N[C@H](C)c1cccc(C2=CCOCC2)c1	–	–	–	–	–	2.4
Cc1ccnc(NS(=O)(=O)c2ccc(NC(=O)c3cncc(Br)c3)cc2)n1	–	octanol/buffer	pH 11	–	–	-0.44
CN(C)C(=O)c1ncccc1O	shake-flask, potentiometric	1-octanol/water	–	–	–	< -0.5
CN1CCN(C(=O)c2ccccc2N(Cc2ccccc2)S(C)(=O)=O)CC1	–	octanol/buffer	pH 11	–	known kinase inactives set	1.54
CC(C)CCNC(=O)c1ncccc1O	shake-flask, potentiometric	1-octanol/water	–	–	–	3.2

Excerpt of the above:
Structure (SMILES)	technique	matrix	pH	temperature	setting	logP
COC(=O)CNC(=O)c1nc(Cl)c2ccccc2c1O	shake-flask, potentiometric	1-octanol/water	–	–	–	3.3
